{"data": "Measurements of several laboratories", "note": "Every numbered part comes from another study and shows a few of its results, in no order. Changes are numbered by the printed parent chain."}
{"data": "Set 1", "target": "CCNB2, cyclin fold, Cln2 fusion (human)", "technique": "yeast growth competition, sequencing", "medium": "yeast", "setting": "weak parent motif", "relative to": "not given", "reading": "higher = stronger binding", "starting sequence": "SLBP docking peptide (human); ARYKRKLLINDFG; partner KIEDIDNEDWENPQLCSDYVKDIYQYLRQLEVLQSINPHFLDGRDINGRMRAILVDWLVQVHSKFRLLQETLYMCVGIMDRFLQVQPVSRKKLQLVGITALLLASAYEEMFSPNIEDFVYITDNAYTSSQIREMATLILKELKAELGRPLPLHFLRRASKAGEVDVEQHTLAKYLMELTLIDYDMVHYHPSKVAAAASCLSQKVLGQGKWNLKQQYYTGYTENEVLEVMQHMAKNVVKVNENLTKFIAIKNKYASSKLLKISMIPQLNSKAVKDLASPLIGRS"}
{"Change": "F12H", "normalised enrichment score": 0.586}
{"Change": "I9C", "normalised enrichment score": 0.933}
{"Change": "L8E", "normalised enrichment score": 0.589}
{"Change": "D11C", "normalised enrichment score": 0.581}
{"Change": "L8Q", "normalised enrichment score": 0.453}
{"Change": "N10Y", "normalised enrichment score": 0.729}
{"Change": "A1H", "normalised enrichment score": 0.59}
{"Change": "Y3L", "normalised enrichment score": 1.24}
{"Change": "G13S", "normalised enrichment score": 0.145}
{"Change": "A1R", "normalised enrichment score": 0.203}
{"Change": "K4W", "normalised enrichment score": 1.08}
{"Change": "I9G", "normalised enrichment score": 0.589}
{"data": "Set 2", "target": "RNA binding protein fox-1 homolog 2, RRM domain, GST-SBP tag (RBFOX2, Homo sapiens, UniProt O43251-10, residues 100-194)", "technique": "RNA Bind-n-Seq", "form": "RNA", "medium": "in vitro", "concentration": "365 nM", "setting": "natural RNA segment, single round, ends assumed", "relative to": "no-protein control", "reading": "higher = stronger binding", "Residues (chain)": "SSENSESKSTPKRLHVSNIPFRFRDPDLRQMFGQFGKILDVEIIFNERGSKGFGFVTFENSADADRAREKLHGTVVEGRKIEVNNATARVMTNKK"}
{"Sequence": "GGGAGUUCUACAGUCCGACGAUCGCCCCGUCCUGGUGCCUCUUCUGGAUGUCCCCAGAUCAUCAUAUCUAUCACCACGAGAGAACUUCCCAUCCAGGGCAGAACUCUGAUCUUAAACACUUCCCACUGCCAGAUGGAAUUCUCGGGUGCCAA", "RBNS enrichment (R)": 0.417}
{"Sequence": "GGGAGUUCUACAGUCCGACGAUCGGCCUGGGGCGGGGGGAACAGUCACUGGGUCUCAGAUUCUGAGACUGUUGUUUAGCUUACCUUUCUGCUAGGAUUGGCUUCCCGCAGAGGGCAGGGCCCAUCCUAAGCAGUGGAAUUCUCGGGUGCCAA", "RBNS enrichment (R)": 0.276}
{"Sequence": "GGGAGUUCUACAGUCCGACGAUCAGAGGGUGAACGGAGGCAGCGGGAACAGGUCCUGCCUGCCUGGUGAAGGGGUCCGGUGCAUUUUAUAUUCUCUUUACAAAGGGCCUCUCUUCCACAGUUAACCAGGUCUCUGGAAUUCUCGGGUGCCAA", "RBNS enrichment (R)": 1.55}
{"Sequence": "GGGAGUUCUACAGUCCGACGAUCGACAGAGGUGUGAUUCCAGGCCUGGUGUCACAUGACACCAGCAUGCAUUGCAGGAUUAUUAGUGUAUUUUGAGUCUGUAAAAAUAAUAAAUAUGUUUGAAGUAGUUUCCCUGGAAUUCUCGGGUGCCAA", "RBNS enrichment (R)": 0.583}
{"Sequence": "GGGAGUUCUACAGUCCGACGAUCGCUUCUACAACACUGACCUCCAUGAGGUAUUUACUGUGCAAUAACAGAUUCGUCUUCUGAGAGCUUGAAGCAACCCAUGAUUUGUCCCUCCACUGCUCUUCACUGGGUUCUGGAAUUCUCGGGUGCCAA", "RBNS enrichment (R)": 0.241}
{"Sequence": "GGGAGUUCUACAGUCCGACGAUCGUCCAAGAAUAAUCCAAGCUAGAGACACAAGGUGGGAAAACAUUUCAAAAAAAAAAAGUCCUCUUAAGGCCAGUAAUUUAUCUGAAAAGGUAUUUUAUCACACCUUGACAUGGAAUUCUCGGGUGCCAA", "RBNS enrichment (R)": 0.462}
{"Sequence": "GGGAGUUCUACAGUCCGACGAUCGUAGCAAUGGCCAGAGCCUCUGGCCCCUCACCCACCAUGGACCAGCCCAUUGGCCGAGCUCCUGGGGAGCUCCUGGGACCCUUGGCUAUGAAAAUGAGCCCUGGCUCCCAUGGAAUUCUCGGGUGCCAA", "RBNS enrichment (R)": 0.187}
{"Sequence": "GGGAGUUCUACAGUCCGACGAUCCACACGCUUGCCCUGGUUGGUCCUGUCUUUAGGCAGAUGUGGUCAGUAUUCUGUUCCCCAGGCAUACAGCAUCAUAUAUUAAAGCCACAGCAGAAGAGGAAUGUCGCCCAUGGAAUUCUCGGGUGCCAA", "RBNS enrichment (R)": 0.861}
{"Sequence": "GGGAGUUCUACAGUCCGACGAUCUACAAGGUGCCAGGCACCUCCUUUCUGCAUGUGCCUGCCUUUCUAGUAGCAGACAGAUGGAAACAUUGUCUCAUUUUGUCAAGGAGUCCAAAGAAAUGAUUAUAAAACCAUGGAAUUCUCGGGUGCCAA", "RBNS enrichment (R)": 3.06}
{"Sequence": "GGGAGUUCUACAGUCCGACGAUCGAUUGACUUGGUGCAAUAAAGUUCCUUUCUAACCAUUUCUGGUUUAGAAAACAUUCAGCCAUCCUAGAAACUAGCAAUAUUUAUUUUUGCCUCUUUCGUUUUACCUUCAUUGGAAUUCUCGGGUGCCAA", "RBNS enrichment (R)": 0.308}
{"Sequence": "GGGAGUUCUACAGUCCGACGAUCUUAGUAGAGACAGGGUUUCACCAUGUUGACCACACUGGUCUUGAACUUCUAACCAUGUGAUCUGCCUGCCUCGGCCUCCCAAAGUGCUGGGAUUACAGGCUUGAGCCACCUGGAAUUCUCGGGUGCCAA", "RBNS enrichment (R)": 0.264}
{"Sequence": "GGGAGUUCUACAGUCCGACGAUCAGGAUGGGCGGGGAUUGGCCGGGGCAGGUUGCCUUUACUAGCCAUUGGCCUGUGUCCGCCACUUGGAGUGCCCCAAAGGGGGCUUCUAACCAUUCCUUCCUCCAUCAGCCUGGAAUUCUCGGGUGCCAA", "RBNS enrichment (R)": 0.235}
{"data": "Set 3", "target": "ABI1, truncated, D143A, DHFR fusion (Arabidopsis thaliana)", "technique": "DHFR PCA, deep sequencing", "medium": "yeast", "setting": "methotrexate growth selection, single substitutions", "with": "(+)-ABA 0.39 µM", "relative to": "wild-type fitted maximum", "reading": "higher = stronger binding", "starting sequence": "PYL1, truncated, DHFR fusion (Arabidopsis thaliana); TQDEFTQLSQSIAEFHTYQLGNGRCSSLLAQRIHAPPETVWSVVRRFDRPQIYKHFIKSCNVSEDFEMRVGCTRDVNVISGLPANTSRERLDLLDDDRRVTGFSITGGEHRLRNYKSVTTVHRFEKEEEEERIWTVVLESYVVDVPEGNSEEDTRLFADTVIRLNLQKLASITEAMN"}
{"Change": "G108V", "relative binding score [%]": -8.08}
{"Change": "T119K", "relative binding score [%]": -3.55}
{"Change": "F103L", "relative binding score [%]": 4.91}
{"Change": "A30S", "relative binding score [%]": 48.2}
{"Change": "V145E", "relative binding score [%]": -10.3}
{"Change": "N177H", "relative binding score [%]": 59}
{"Change": "A158T", "relative binding score [%]": 47.8}
{"Change": "H55N", "relative binding score [%]": 35.3}
{"Change": "S104Y", "relative binding score [%]": -16.4}
{"Change": "C25M", "relative binding score [%]": 3.52}
{"Change": "L91E", "relative binding score [%]": -4.04}
{"data": "Single results of other studies"}
{"Substance": "PhoQ, residues 284 288 289 292 302 303 HSYLQF", "target": "PhoP, residues 12 14 15 18 19 STHWV (Escherichia coli, UniProt P23836)", "assay": "Sort-seq, refers to: YFP reporter", "system": "E. coli", "conditions": "PhoQ-PhoP variant library, with: 10 µM Mg2+", "scale": "relative to: high Mg2+ state, higher = stronger signaling", "measurement": "fold induction", "result": 0.759}
{"note": "Repeated from above (set 1):"}
{"Change": "K4W", "normalised enrichment score": 1.08}
{"Change": "L8Q", "normalised enrichment score": 0.453}
{"Change": "A1H", "normalised enrichment score": 0.59}
{"Change": "G13S", "normalised enrichment score": 0.145}
